Measured values gathered from unrelated publications.
Each numbered part is a random draw from the data of one study; scales do not carry over between parts. Positions count from the first letter of the parent shown.

Set 1
Target: Histone acetyltransferase KAT6A, winged helix 2, GST fusion (KAT6A, Homo sapiens, UniProt Q92794, residues 85-181)
Method: protein binding microarray
Form: double-stranded DNA, one strand shown
Sample: in vitro
Concentration: not given
Notes: 8-mer, flanks averaged, mean of 2 arrays, mostly near background
Relative to: not given
Direction: higher = stronger binding
Quantity: E-score
Target sequence (chain): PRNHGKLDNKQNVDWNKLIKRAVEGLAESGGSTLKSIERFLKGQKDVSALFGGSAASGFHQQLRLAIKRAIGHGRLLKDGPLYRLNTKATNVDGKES
TAGGATCA: -0.0845
ACGTAGAA: -0.104
ACCTTAAG: -0.181
ACGTGGTG: -0.205
CCTCCACG: 0.033
CCCTGGAC: 0.0505
ACGGAGTG: 0.155
CGCTTCGC: 0.129
ACACATAG: -0.00316
GTAGCCGA: 0.0442
ATCCAATA: 0.0745
AACGTTCG: -0.00636
ATAATAAC: -0.139
CCGCACCG: -0.00313
ATCCAAGA: 0.128
AAGCCTAT: -0.0812
CTTAGAAC: 0.0774
GAGTCTAC: -0.13
CGGGTTGA: 0.0178
CACCACAA: 0.0667
GCCGCTCA: -0.0404
AGATGCCA: -0.129
CGTGGGGA: 0.155
CTAGGAAG: -0.0717
ACCAAGAG: 0.0105

Set 2
Target: Hepatocyte nuclear factor 3-alpha (Foxa1, Mus musculus, UniProt P35582, residues 1-468, full length assumed)
Method: EMSA with sequencing
Form: double-stranded DNA, one strand shown
Sample: in vitro
Concentration: 10 and 20 nM
Notes: whole designed probe, mean of two concentrations, ends assumed
Relative to: negative control set to 0
Direction: higher = stronger binding
Quantity: normalised bound fraction
Constant ends, left off below: GTGAGCGGTGCCCATTGATGGGGAAC … TTTCACTGGGATCGTGGGGAC
CAGGAGCCTAGCCCTGTCTTTCCTCTGAGAGAAATGGTTTAGTACTTGCTAATTCCATGTTTCTGGCAACTTTATAGAACATAACTCCACAAAGTAATCTAGAATTGATTGTAATTCACTGACAGCTCACAAATCTCCATTCCAGAGAGACTTTCCCTGACTTCTGTATTTAAAGCAGCACGACCCCTCCCCT: -0.07 ratio
TGATGATACGTTATAGCATTTCTCTGCTCTGTAAGAGAGGCACCAGGGTCGTGTGCTGGGTCTGGGGTTTGTCCATTCGCACATCCGGTCTGCTGTTGACTCTGGTGTCGGCCGCTGGTGAGCTGGCTGTAGCTGGTCACCTCTGGGTGGTTTCTGGGGCGGTCGCAGGCTGACTAACACACCAAAGGTCAGC: 0.0064 ratio
TTGACCACTCTTCAAGTTCAATGACCACATTAAATCCTGAAGAATATTCATCTTTGCCTTTGGAATCATTTGTCCAGACTTCATCATCATCTAAGTAAACATCACCTTCAGACCCTTACCAGGAGAAAAGGCATGAGCTGGCTGTCTAAAAGGGCCCATCAAATGGGGAGAAATCACCATGTTCTAAAAGGGA: 0.44 ratio
TCTATTCAACAAATTAATTGATGTCTAGAAAAATTAATAAGGAATATTCAAGAAACGGTAACTTTTTAACCTTGCAAGAATATAAAAACAAAGTAAACATCAACGAGAAATTTATTTGTAAATGAGACACCCAGGTGTATTCATTTGCATTTTATTAATGGAAATTTTTTCCTGAAATGACCATGAAACTTGA: 0.335 ratio
ATCTTCCCCCTCTTCCTTGCCCCACCAGCTCACCTTCCCGGGTTATTTGCAGATAGGAAAATAAATAAAGCCGGCATTCGTTAACCCTCTTCTGGCGCAAACTGCTGTTTGCTCTGGGTAAACTATGGTCCTTTGGCGACGCCAGGCTCCGGGAGAGCAAAGCACCGTGTCAGGGCCATGATCCGGGGTGGCC: 0.342 ratio
AAATGTAAAACTGCTGAAAAGATAAGAAGAAATGAATAAATCTATAATTAAGACGGAAATCTTTAATAGGCCATAGGCCTCAGGAGTCCTCAAAGTAAACAAAAAATGCACAAGCATGCTTATCTTAAAGGATTAAATAGGTATTTTTAAAATATTGATTTAATACACATGTAGAACTATTAAGTAACAAAAT: 0.512 ratio
AAAACAAACAAATAAAACAACTAGTATGGAAGCTAGAATAATGTGATGCACCATTACACCAAATATTCAGTCTTAACATGGTTTTTAATATTATGTAAACATGGAAGGTATTGCCATTGTTCATATGATACAGAATCAATGGCACTCACAAGCATCTGAATATGTTGAAAAATGGCACCTTCAAATAAAAATT: 0.535 ratio
CGTTTGCCAGCCCAAGATAGGCTGTGACAAAAGGAAGTGAGCCTTATCTATCAGTGGAGGTTGAACAACCAGCAACGTGAGTCATCCGCAAAAGTAAACAGCTGGGGCTAGATGCGGTGGCTCGCGCCTGTAATCCCAGCACTTTAGGAGGCCAAGGCAGGTGGATTACCTGAGGTCAGCCTGACCAACATGG: 0.289 ratio

Set 3
Target: CCND1, cyclin fold, Cln2 fusion (human)
Method: yeast growth competition, sequencing
Sample: yeast
Notes: strong parent motif
Relative to: not given
Direction: higher = stronger binding
Quantity: normalised enrichment score
Starting sequence: CDKN1A docking peptide (human); SKACRRLFGPVDS; partner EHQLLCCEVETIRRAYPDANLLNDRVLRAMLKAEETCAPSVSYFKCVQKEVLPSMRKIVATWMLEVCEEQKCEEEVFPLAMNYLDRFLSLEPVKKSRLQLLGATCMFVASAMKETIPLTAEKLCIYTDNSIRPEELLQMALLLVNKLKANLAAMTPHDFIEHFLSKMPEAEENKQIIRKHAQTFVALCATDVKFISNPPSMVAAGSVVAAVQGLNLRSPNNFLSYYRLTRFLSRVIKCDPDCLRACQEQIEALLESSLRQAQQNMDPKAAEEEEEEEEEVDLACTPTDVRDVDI
R5I: 0.725
C4K: 0.535
D12R: 0.956
V11E: 5.31
L7K: 0.15
F8W: 0.789
G9H: 2.35
F8R: -0.101
A3Q: 0.213
C4M: 0.993
V11W: 2.74
V11L: 2.5
G9A: 3.56
C4A: 1.45

Set 4
Target: BIRC6 UBC core domain (UniProt Q9NR09)
UniProt Q9NR09, sequence (whole entry, looked up): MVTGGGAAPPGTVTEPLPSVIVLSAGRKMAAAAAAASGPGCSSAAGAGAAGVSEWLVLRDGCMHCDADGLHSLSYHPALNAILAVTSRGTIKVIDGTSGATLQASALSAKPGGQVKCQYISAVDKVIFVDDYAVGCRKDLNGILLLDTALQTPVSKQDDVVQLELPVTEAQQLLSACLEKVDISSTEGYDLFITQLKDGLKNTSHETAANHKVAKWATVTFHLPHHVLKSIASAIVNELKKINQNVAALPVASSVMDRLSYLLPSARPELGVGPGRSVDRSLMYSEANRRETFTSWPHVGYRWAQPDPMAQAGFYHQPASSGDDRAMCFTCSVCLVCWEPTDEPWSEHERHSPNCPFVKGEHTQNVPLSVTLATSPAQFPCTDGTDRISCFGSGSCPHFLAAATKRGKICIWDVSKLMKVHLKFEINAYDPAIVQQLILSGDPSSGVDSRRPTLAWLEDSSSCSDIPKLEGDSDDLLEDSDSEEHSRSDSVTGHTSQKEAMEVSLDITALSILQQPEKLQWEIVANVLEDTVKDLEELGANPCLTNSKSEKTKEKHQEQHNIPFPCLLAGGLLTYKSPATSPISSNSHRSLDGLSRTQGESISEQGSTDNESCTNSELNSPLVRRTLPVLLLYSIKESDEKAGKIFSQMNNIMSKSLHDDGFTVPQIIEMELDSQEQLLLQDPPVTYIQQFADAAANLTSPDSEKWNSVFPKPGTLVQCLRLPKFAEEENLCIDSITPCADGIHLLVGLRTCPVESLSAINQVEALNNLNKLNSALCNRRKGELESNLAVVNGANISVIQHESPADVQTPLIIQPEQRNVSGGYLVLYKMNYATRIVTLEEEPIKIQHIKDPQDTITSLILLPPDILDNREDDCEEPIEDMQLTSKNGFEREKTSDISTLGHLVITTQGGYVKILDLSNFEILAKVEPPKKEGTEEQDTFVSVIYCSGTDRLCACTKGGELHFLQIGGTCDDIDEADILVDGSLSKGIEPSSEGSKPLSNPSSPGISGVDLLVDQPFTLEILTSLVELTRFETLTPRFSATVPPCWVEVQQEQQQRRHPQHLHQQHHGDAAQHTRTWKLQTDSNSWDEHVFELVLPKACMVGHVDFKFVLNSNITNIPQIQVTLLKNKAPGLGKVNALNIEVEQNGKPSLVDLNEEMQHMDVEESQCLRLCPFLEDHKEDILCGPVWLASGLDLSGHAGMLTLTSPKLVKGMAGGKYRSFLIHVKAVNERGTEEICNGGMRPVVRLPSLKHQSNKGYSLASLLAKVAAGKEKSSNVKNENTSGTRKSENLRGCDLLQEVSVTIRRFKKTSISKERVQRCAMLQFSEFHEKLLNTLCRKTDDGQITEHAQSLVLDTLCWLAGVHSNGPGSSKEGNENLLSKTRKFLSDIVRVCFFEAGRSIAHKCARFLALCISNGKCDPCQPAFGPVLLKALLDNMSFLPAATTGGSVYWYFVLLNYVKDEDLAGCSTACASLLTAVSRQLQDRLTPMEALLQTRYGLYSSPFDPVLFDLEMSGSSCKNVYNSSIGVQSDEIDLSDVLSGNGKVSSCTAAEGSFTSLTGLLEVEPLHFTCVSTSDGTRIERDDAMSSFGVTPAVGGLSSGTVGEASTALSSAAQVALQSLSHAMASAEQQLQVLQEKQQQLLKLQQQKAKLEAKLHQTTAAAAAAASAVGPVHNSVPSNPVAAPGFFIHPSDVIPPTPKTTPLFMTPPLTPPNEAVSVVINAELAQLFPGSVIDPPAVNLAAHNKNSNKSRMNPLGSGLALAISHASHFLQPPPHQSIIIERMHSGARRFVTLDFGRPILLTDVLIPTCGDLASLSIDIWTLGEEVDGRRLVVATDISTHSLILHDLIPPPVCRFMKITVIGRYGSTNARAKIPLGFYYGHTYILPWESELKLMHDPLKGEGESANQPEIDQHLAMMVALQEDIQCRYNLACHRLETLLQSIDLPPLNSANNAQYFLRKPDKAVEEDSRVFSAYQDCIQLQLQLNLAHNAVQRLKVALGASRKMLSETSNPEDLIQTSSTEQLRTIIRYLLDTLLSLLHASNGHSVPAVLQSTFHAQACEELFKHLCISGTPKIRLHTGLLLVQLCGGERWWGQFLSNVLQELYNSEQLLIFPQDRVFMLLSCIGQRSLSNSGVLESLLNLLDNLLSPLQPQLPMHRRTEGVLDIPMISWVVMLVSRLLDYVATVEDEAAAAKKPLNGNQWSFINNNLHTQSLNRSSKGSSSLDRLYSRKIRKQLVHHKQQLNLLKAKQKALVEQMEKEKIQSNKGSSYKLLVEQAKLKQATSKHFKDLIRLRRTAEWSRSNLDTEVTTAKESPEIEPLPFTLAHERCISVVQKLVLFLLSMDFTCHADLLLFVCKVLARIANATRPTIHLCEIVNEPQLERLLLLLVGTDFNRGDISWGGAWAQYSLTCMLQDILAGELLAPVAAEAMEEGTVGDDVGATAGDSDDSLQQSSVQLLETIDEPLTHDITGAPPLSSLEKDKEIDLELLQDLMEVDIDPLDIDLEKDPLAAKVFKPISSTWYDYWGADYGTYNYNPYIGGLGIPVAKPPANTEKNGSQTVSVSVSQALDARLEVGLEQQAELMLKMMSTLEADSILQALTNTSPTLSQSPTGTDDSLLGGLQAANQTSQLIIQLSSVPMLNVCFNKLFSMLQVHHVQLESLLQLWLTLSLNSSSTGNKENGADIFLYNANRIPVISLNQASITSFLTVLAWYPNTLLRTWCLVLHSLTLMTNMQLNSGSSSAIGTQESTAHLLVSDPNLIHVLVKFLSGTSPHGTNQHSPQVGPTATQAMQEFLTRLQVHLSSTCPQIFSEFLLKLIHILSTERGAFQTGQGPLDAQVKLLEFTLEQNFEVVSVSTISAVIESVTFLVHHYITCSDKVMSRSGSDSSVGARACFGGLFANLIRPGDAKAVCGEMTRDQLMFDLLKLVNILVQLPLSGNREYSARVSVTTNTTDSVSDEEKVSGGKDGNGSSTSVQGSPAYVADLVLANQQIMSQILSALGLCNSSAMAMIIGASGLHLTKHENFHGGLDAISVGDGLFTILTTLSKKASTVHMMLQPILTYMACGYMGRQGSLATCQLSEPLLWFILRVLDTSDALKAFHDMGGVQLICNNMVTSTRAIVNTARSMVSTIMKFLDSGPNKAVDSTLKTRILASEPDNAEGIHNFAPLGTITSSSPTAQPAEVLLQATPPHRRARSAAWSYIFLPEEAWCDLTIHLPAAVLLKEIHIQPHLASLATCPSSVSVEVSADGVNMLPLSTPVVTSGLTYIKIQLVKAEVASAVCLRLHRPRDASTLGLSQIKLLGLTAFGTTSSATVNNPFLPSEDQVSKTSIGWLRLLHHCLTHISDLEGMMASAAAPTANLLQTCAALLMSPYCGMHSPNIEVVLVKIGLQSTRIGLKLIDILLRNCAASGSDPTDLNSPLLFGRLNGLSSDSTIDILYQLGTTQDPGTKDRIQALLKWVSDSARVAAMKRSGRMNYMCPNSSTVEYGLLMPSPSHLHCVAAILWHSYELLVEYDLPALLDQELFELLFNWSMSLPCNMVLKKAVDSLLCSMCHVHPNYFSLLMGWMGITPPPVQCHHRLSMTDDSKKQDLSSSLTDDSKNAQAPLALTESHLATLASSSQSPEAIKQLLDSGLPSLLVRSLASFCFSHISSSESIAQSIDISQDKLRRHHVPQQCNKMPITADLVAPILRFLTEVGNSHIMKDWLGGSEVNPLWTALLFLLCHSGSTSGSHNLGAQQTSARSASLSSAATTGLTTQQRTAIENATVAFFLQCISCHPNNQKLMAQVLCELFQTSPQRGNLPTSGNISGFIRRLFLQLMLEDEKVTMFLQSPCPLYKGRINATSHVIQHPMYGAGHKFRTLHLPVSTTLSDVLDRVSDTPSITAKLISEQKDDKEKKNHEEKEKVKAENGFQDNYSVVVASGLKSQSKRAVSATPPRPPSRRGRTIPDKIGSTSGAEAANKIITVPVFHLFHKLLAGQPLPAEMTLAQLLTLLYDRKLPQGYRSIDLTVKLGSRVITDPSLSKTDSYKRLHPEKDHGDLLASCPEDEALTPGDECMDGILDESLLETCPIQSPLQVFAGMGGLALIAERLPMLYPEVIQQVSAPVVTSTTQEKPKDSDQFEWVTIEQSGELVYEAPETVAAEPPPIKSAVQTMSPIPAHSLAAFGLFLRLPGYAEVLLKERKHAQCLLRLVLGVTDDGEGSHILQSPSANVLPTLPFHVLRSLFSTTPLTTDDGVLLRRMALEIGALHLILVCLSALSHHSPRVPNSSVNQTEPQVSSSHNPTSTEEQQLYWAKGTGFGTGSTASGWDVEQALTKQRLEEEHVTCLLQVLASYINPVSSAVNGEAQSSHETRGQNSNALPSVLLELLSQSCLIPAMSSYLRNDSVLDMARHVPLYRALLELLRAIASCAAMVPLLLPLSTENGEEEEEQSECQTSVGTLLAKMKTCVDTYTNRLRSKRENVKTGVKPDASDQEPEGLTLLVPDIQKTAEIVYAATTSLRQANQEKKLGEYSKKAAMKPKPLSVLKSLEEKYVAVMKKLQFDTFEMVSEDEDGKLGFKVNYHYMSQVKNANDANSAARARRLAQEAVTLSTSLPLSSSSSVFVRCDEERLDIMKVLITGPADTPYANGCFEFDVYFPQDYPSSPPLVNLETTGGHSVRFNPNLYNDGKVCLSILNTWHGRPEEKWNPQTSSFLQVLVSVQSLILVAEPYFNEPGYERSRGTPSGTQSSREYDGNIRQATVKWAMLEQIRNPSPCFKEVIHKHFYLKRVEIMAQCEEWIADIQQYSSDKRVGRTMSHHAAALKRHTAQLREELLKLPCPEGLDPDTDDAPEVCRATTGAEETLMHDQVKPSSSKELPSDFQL
Method: yeast two-hybrid
Sample: yeast
Notes: mostly zero background
Relative to: not given
Direction: higher = stronger interaction
Quantity: lacZ reporter activity
B1: DZIP3 RING domain (UniProt Q86Y13); chain PDEEEEEEEPCVICHENLSPENLSVLPCAHKFHAQCIRPWLMQQGTCPTCRLHVLLPEEFP
B2: RNF19A RING domain (UniProt Q9NV58); chain ISKQIGDFIECPLCLLRHSKDRFPDIMTCHHRSCVDCLRQYLRIEISESRVNISCPECTERFNPHDIR
B3: RFWD3 RING domain (UniProt Q6PCD5); chain ASMDEEEGDTCTICLEQWTNAGDHRLSALRCGHLFGYRCISTWLKGQVRKCPQCNKKARHSDIVV
B4: RNF133 RING domain (UniProt Q8WVZ7); chain DEEINPNGDSCVICFERYKPNDIVRILTCKHFFHKNCIDPWILPHGTCPICKCDILKVLGIQ
B5: TRIM62 RING domain (UniProt Q9BVG3); chain MACSLKDELLCSICLSIYQDPVSLGCEHYFCRRCITEHWVRQEAQGARDCPECRRTFAEPALAP
B6: UBOX5 RING domain (UniProt O94941); chain EQPGSILGPECASCKRVFSPYFKKEPVYQLPCGHLLCRPCLGEKQRSLPMTCTACQRPVASQDVLR
AVPSGLEENLCKICMDSPIDCVLLECGHMVTCTKCGKRMNECPICRQYVIRAVHVF (RFFL RING domain (UniProt Q8WZ73)): 0
GSRLQEINDVCAICYHEFTTSARITPCNHYFHALCLRKWLYIQDTCPMCHQKVYIEDDIK (RNF139 RING domain (UniProt Q8WU17)): 0
NLSELTPYILCSICKGYLIDATTITECLHTFCKSCIVRHFYYSNRCPKCNIVVHQTQPLY (PCGF6 RING domain (UniProt Q9BYE7)): 0
B1 (DZIP3 RING domain): 0
B2 (RNF19A RING domain): 0
PEDRESLKSACVVCLSSFKSCVFLECGHVCSCTECYRALPEPKKCPICRQAITRVIPLY (MUL1 RING domain (UniProt Q969V5)): 0
B3 (RFWD3 RING domain): 0
YQNEVDDDLVCHICLQPLLQPLDTPCGHTFCYKCLRNFLQEKDFCPLDRKRLHFKLCKK (LNX2 RING domain (UniProt Q8N448)): 0
B4 (RNF133 RING domain): 0
B5 (TRIM62 RING domain): 0
AMYLQENGIDCPKCKFSYALARGGCMHFHCTQCRHQFCSGCYNAFYAKNKC (RNF31 RING domain (UniProt Q96EP0)): 0
B6 (UBOX5 RING domain): 0

Set 5
Target: ABI1, truncated, D143A, DHFR fusion (Arabidopsis thaliana, UniProt P49597)
Method: DHFR PCA, dose-response
Sample: yeast
Notes: Hill fit, not affinity, not high confidence
With: (+)-ABA, dose series
Direction: lower = more sensitive
Quantity: ABA EC50
Starting sequence: PYL1, truncated, DHFR fusion (Arabidopsis thaliana, UniProt Q8VZS8); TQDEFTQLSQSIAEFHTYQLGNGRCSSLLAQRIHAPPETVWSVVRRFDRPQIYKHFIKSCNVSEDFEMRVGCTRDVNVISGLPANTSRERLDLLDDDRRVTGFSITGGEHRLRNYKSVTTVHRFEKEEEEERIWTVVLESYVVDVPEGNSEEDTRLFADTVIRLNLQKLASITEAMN
T86W: 0.126 µM
L166K: 9.03 µM
D95P: 39.8 µM
P50L: 13.5 µM
Y141A: 3.79 µM
S140I: 263 µM
V76P: 808 µM
P50Q: 480 µM
F47A: 607 µM
V78E: 1.1 µM
K116P: 0.218 µM
V121K: 9.05 µM
V76W: 11.6 µM
V76D: 0.21 µM
S80C: 197 µM
A158W: 0.205 µM
A170I: 1470 µM
V44P: 8.01 µM

Set 6
Target: RING finger protein unkempt homolog, zinc fingers 1-6, GST-SBP tag (UNK, Homo sapiens, UniProt Q9C0B0, residues 30-357)
UniProt Q9C0B0, sequence (30-357, looked up): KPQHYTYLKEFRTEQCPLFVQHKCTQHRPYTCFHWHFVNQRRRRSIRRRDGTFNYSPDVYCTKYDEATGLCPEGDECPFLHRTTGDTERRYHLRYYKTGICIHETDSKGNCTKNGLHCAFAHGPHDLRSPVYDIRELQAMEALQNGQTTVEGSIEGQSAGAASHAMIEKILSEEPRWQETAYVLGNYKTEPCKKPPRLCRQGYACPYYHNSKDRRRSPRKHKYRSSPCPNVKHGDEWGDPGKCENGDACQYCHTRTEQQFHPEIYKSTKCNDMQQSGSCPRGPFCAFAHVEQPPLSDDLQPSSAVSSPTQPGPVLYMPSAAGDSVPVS
Method: RNA Bind-n-Seq
Form: RNA
Sample: in vitro
Concentration: not given
Notes: RNA with constant flanks, ends assumed
Relative to: input RNA pool
Direction: higher = stronger binding
Quantity: bound/input enrichment
Constant ends, left off below: GGGAGUUCUACAGUCCGACGAUC … CAACAGAGGAUUGAGCAUCA
UGUGCACGCACACUUAAGUGCAUGCAUGGAAGGUGCCUGGGCUGUCUUUGCUAUAUGUAAACCGGGCCACUGGAUCUUUAUUUUUGAUUAAUUUGUUCUGAUUUUUUUUUUGGUUUGUUU: 1.25 ratio
UGUUAUAUCACACCAAAGAGACCUCGAUCUUCUGCUAAAGAGUCACAUUACAAAUCUGCUGUCCGCAAGGACUUUCUCACUGAAGGAAAGGCAUCUGAUAGAACUAGCAGACAGCUGUUA: 0.205 ratio
AUCAUCUGCAUCGUCACGUACGUGCUGAACUUCCUUCUUCUCAUUAUCAACUACAAACGACCCGUUUACUUGAACGAGGCCUGGAAGCGGCAGCUGCAACCCAAGCAGGACUGACGCCCG: 0.109 ratio
GCUCAAAAAGUGUUUUUCAGACCUCGGUAUUCCUAAUGUGGGAUGUGACUUUAUUUUAUUUUCCGCCGCAAAUUUGGAUGUAGACUGACAGACAUAGCUGAAUGUCUUAAUAAAUUUAAA: 0.677 ratio
UCUGCCACCCAGCAGAAGAAAAACACCAAACUCUCUAGCAAAACGACUGCUAAGUUAUCCACCCGUGCUAAAAGAAUUCAGAAGGAGCUAGCAGAGAUAACCCUUGAUCCUCCUCCUAAC: 0.285 ratio
UCCGAACACAAAAUCUUAUUCCUUGGAGCAGGAGAGGCUGCUCUUGGAAUUGCAAAUCUUACCGUUAUGUCUAUGGUAGAAAAUGGCCUGUCAGAACAAGAGGCACAAAAGAAAAUCUGG: 0.222 ratio
UAUUCACAACUUGGAACAUUUGCACCAGUAUGGGAUGUAUUCAAAACAUCUACAGAGAAAUCCGCAAAUUGUCACUUGGAUCUUGUUAGAAAAUUACAAGAAUUAAUAAAGGAAGUUCAG: 0.665 ratio
UGUGCUGAAUUACACCAAAAUGUAAAUGUGAAAAACAUAAUCAUUGCUUUAAUUGACAGAUCCGCUUUAUUUGCUCAUCGUGAAGAUGGACCCGGAAUUCCAGCUGAGAUUAAACUUUUU: 0.126 ratio
GAGCCAUUCUAAAAGUGACCAGCAGGAGGGAUCUAGUAGUGAAUAAUAUCUUAAUAGCAAUUUCCGGAGAAAAUGACUCUUUCGUCCAGAAGAGCUCUGCAGAACCAGGGCUCCCGUUUA: 2.7 ratio
CAUAUUAAAUAUGACCCAGAAAUUAUUGGUCCUAGAGAUAUUAUCCAUACAAUUGAAAGCUCCGGUUUUGAAGCUUCUUUGGUCAAGAAGGAUCGGUCAGCAAGUCACUUAGAUCAUAAA: 2.31 ratio
CCACGGAUGUUCAAUAUCAUCUCAGAUUCUCCAUCUCCUAUUGCUGCAAGAACACUGAUAUCCGUGGCUAAAUCUGUGCAGAACUUAGCAAAUCUUGUGGAAUUUGGAGCUAAGGAGCCC: 0.169 ratio

For quick reference, copied from above (set 1):
ATCCAATA: 0.0745
AACGTTCG: -0.00636
ATAATAAC: -0.139
CCGCACCG: -0.00313
ATCCAAGA: 0.128
AAGCCTAT: -0.0812
CTTAGAAC: 0.0774
GAGTCTAC: -0.13
CGGGTTGA: 0.0178
CACCACAA: 0.0667
GCCGCTCA: -0.0404
